Experimental data from different studies.
Lines come from different studies, so protocols differ. ± gives the spread as reported. ≈ marks a conversion by molar mass, not a printed value.

Structure (SMILES) | assay | system | setting | how to read | quantity | value
Cc1ccc(-c2ccc(-c3cc4sccc4o3)cn2)nc1 |  | hexanes | with: quinine bisulfate reference |  | fluorescence quantum yield | 0.5
CCCCN1C(=O)c2cccc3c(NCCCCCCCCCCN4CCOCC4)ccc(c23)C1=O |  | aqueous medium | pH 6 |  | fluorescence brightness | 912 M⁻¹ cm⁻¹
CCCCCCCC(=O)OC[C@H](NC(=O)[C@H](CO)NC(=O)CN)C(=O)N[C@@H](Cc1ccccc1)C(=O)N[C@@H](CC(C)C)C(=O)N[C@@H](CO)C(=O)N1CCC[C@H]1C(=O)N[C@@H](CCC(=O)O)C(=O)N[C@@H](Cc1cnc[nH]1)C(=O)N[C@@H](CCC(N)=O)C(=O)N[C@@H](CCCNC(=N)N)C(=O)N[C@H](C(=O)N[C@@H](CCC(N)=O)C(=O)N[C@@H](CCC(N)=O)C(=O)N[C@@H](CCCNC(=N)N)C(=O)N[C@@H](CCCCN)C(=O)N[C@@H](CCC(=O)O)C(=O)N[C@@H](CO)C(=O)N[C@@H](CCCCN)C(=O)N[C@@H](CCCCN)C(=O)N1CCC[C@H]1C(=O)N1CCC[C@H]1C(=O)N[C@@H](C)C(=O)N[C@@H](CCCCN)C(=O)N[C@@H](CC(C)C)C(=O)N[C@@H](CCC(N)=O)C(=O)N1CCC[C@H]1C(=O)N[C@@H](CCCNC(=N)N)C(=O)O)C(C)C | beat-to-beat plethysmography | human chronic HFrEF patients | intravenous infusion, 0.1 µg/kg/min, after 60 min infusion |  | blood pressure mBP | 71.4 ± 10.2 mm Hg
COC(=O)/C=C/C(=O)c1ccc(OC)cc1 | LC-MS/MS | rat plasma | 40 ng/mL, 12 h, room temperature, short-term storage |  | recovery | 101 ± 1.91%
Cn1cc(C(N)=O)c(NC2C3CC4CC2CC(OS(=O)(=O)O)(C4)C3)c2ccnc1-2 (stereo not shown) |  | Japanese adults, normal hepatic function, plasma | oral, 150 mg single dose |  | AUC(0-t) | 412 ng·h/mL
Cc1ccc(OCC(=O)N(Cc2cccs2)c2ccn[nH]2)cc1 |  | Sprague-Dawley rat, male, plasma | oral gavage, 10 mg/kg |  | dose-normalised AUC(0-last) | 0.164 ng·h/mL/mg/kg
C[C@H](NC(=O)COC(=O)[C@H](C)NC(=O)CO)C(=O)O |  | water | pH 8, 37 °C |  | depolymerization half-life | 1.2 min
CC(C)[C@H](NC(=O)[C@@H]1CCCN1C(=O)[C@H](CCCNC(=N)N)NC(=O)[C@H](CS)NC(=O)[C@H](Cc1c[nH]c2ccccc12)NC(=O)[C@H](CCCNC(=N)N)NC(=O)[C@@H](Cc1ccccc1)NC(=O)[C@H](Cc1c[nH]cn1)NC(=O)[C@H](CCC(=O)O)NC(=O)[C@H](CS)NC(=O)[C@H](CS)NC(=O)CNC(=O)[C@@H]1CC(=O)N[C@@H](CCCNC(=N)N)C(=O)NCC(=O)N[C@@H](CC(=O)O)C(=O)N[C@H](Cc2ccc(O)cc2)C(=O)N1)C(N)=O [technetium-99m labelled] |  | C57 mouse, female, B16/F1 melanoma | intravenous, 0.037 MBq, 4 h | relative to: tumour over blood | tumour to tissue ratio | 11.2
[11CH3]c1ccc2nc(C3CCC3)n(-c3ccc4[nH]ncc4c3)c2n1 | extrapolated from mouse | human male, Lower large intestine wall |  |  | absorbed dose | 5 µSv/MBq
CCn1c(=O)n(CCO)c(=O)c2c1nc(/C=C/c1ccc(OC)c(OC)c1)n2C |  | healthy humans, plasma | oral, 40 mg |  | metabolite to parent AUCinf ratio | 0.0513
CC(C)[C@H](NC(=O)CNC(=O)[C@H](CCC(N)=O)NC(=O)[C@H](C)N)C(=O)O |  | human | 30 mg/kg single dose, LOQ 0.5 ng/mL |  | time to concentration below LOQ | 120 min
O=C(Nc1nccs1)C(c1cc(F)ccc1O)N1Cc2ccccc2C1=O (stereo not shown) |  | mouse plasma | 1500 ng/mL, 24 h, room temperature, short-term stability, high QC |  | recovery | 96 ± 4.3%
O=[11C](OC(C(F)(F)F)C(F)(F)F)N1CCC(CNS(=O)(=O)c2ccc(Cl)cc2)CC1 | PET | rhesus monkey, male, pons | iv, 3.71 mCi |  | uptake | 0.55 SUV
CC(C)c1cnc(-c2cc(Cl)ccc2F)cc1Nc1ccncc1C(=O)NC(CO)CO | measured: any event, worst grade | human patients | oral, dose not given, grade 1 |  | patients with related SAE | 0%
Cc1ccc(C(=O)N[C@@H](CO)CC(C)C)cc1C | LC-MS | human liver microsomes | 10 µM of parent drug, 60 min, pH 7.4, with: NADPH | relative to: parent drug at time zero | metabolite peak area | 1.8%
Cc1ccccc1/N=N/c1ccc(/N=N/c2c(O)ccc3ccccc23)c(C)c1 |  | Sprague-Dawley rats both sexes, whole blood | oral, 50 mg/kg |  | elimination half-life | 2.36 h
CCCC[C@H](NC(=O)CNC(=O)CNC(=O)CN1CCN(CC(=O)O)CCN(CC(=O)O)CCN(CC(=O)O)CC1)C(=O)N[C@H]1CC(=O)NCCCC[C@@H](C(N)=O)NC(=O)[C@H](Cc2c[nH]c3ccccc23)NC(=O)[C@H](CCCNC(=N)N)NC(=O)[C@@H](Cc2ccccc2)NC(=O)[C@H](Cc2c[nH]cn2)NC1=O [copper-64 labelled] |  | female C57 mouse, B16/F1 melanoma | intravenous, 0.037 MBq, 2 h | relative to: tumour over muscle | uptake ratio | 12.4
C#CCOc1ccc(/C=C2\SC(=O)N(CC(=O)NCc3ccccc3)C2=O)cc1 | inverse Kirkwood-Buff integrals | binary solvent mixture | 298.15 K, mole fraction x1 0.25 |  | Kirkwood-Buff integral G1,3 | -277 cm³/mol
Oc1c(Br)cc(Br)c2nc3cc(I)ccc3nc12 |  | human red blood cells | 200 µM, 1 h, pH 7.2, 37 °C |  | hemolysis | ≤ 1%
NC12CNCCNCC(NCc3ccc(CNC(=O)CCCC(=O)NCc4ccc(-c5nncnn5)cc4)cc3)(CNCCNC1)CNCCNC2.[64Cu+2] | OLINDA dosimetry | thyroid | 24 h pretargeting interval, with: huA33-TCO pretargeting |  | mean absorbed dose | 0.0354 rad/mCi
COCCOCCOCCOCCOCCOCCOCCOCCC(=O)NCCCc1cc2cc3nc(cc4[nH]c(cc5nc(c(OC)c1[nH]2)C(=O)C5(C)C)cc4CCc1ccc(C(=O)O)cc1)CC3(C)C |  | water with 5% DMF | room temperature |  | Qy/B absorption intensity ratio | 0.29
N[C@H]1[C@H](O[C@H]2[C@H](O)[C@@H](N)[C@H](O[C@H]3[C@H](O)[C@@H](N)[C@H](O[C@H]4[C@H](O)[C@@H](N)C(O)O[C@@H]4CO)O[C@@H]3CO)O[C@@H]2CO)O[C@H](CO)[C@@H](O)[C@@H]1O (stereo partly shown) |  | SD rats | 250 mg/kg, with: capecitabine |  | capecitabine absorption | inhibited

Structure (SMILES) | assay | system | setting | how to read | quantity | value
O=C([O-])CN(CCN(CC(=O)[O-])Cc1cc(CCC(=O)NCCCCCC(=O)NCCCC[C@H](NC(=O)N[C@@H](CCC(=O)O)C(=O)O)C(=O)O)ccc1O)Cc1cc(CCC(=O)O)ccc1[O-].[68Ga+3] | PET/CT | prostate cancer patients, liver | 60 min post-injection |  | SUVmean | 4.1 ± 1.6
C=C1C(=O)O[C@@H]2C[C@H](C)[C@@H]3C[C@H](OCc4cn(Cc5ccccc5)nn4)[C@H](O)[C@@]3(C)C[C@H]12 | propidium iodide flow cytometry | primary splenocytes, BALB/c mouse | 48 h, 10% fetal calf serum |  | CC50 | 69.1 ± 12 µg/mL (≈ 158 µM)
CN1CCC[C@]1(C)/C=C/S(=O)(=O)NC(=O)Nc1c2c(cc3c1CCC3)CCC2 |  | human, plasma | oral, 12.5 mg twice daily, day 14, multiple ascending dose |  | AUC(0-24) | 23500 ng·h/mL
Cc1cc(O)c2c(c1)C(=O)c1cc(O)cc(O)c1C2=O.Cc1cc(O)c2c(c1)C(=O)c1cc(O)cc(O)c1C2=O.Cc1nc(C)c(C)nc1C | powder dissolution | 900 mL medium | equivalent to 60 mg emodin, pH 7.0, 37 °C, 100 rpm |  | cumulative dissolution | ~370 µg
CN(O)C(=O)CCC(=O)NCCCN(CCCCN(CCCNC(=O)CCC(=O)N(C)O)C(=O)CCC(=O)N(C)O)C(=O)CCC(=O)N(C)O.[89Zr] |  | mouse, kidney | 1 h |  | tracer uptake | 6.93 %ID/g
COc1cc(NC(C)=O)c2c(c1O)-c1c(OC)c(OC)cc3c1C(C2)N(C)CC3 (stereo not shown) |  | rat lung homogenate | 0.5 µg/mL, 24 h, room temperature, post-preparative storage |  | remaining compound | 92.4 ± 2.3%
C#CCN(C(=O)OCc1ccc(B2OC(C)(C)C(C)(C)O2)cc1)[c-]1cccc1.[Fe+2].c1cc[cH-]c1 | cyclic and differential pulse voltammetry | acetonitrile | 23 °C | relative to: ferrocene/ferrocenium | E1/2 | -10 mV
OC1(C(F)(F)F)CCN(c2nc(Nc3ccnc(C(F)(F)F)c3)nc(-c3cccc(C(F)(F)F)n3)n2)C1 (stereo not shown) |  | Sprague-Dawley rat | oral, at least 100 mg/kg, 28 days, once daily |  | food intake | decreased
CCCC[C@H](NC(=O)CNC(=O)CNC(=O)CN1CCN(CC(=O)O)CCN(CC(=O)O)CC1)C(=O)N[C@H]1CC(=O)NCCCC[C@@H](C(N)=O)NC(=O)[C@H](Cc2c[nH]c3ccccc23)NC(=O)[C@H](CCCNC(=N)N)NC(=O)[C@@H](Cc2ccccc2)NC(=O)[C@H](Cc2c[nH]cn2)NC1=O [gallium-67 labelled] |  | C57 mice, female, B16/F1 melanoma, urine | intravenous, 0.037 MBq, 4 h |  | urinary excretion | 86.4 ± 3.94%
CC(C)(Sc1ccncc1-c1ccc(C#N)c2ccccc12)C(=O)OC1OC(C(=O)O)C(O)C(O)C1O (stereo not shown) |  | adult men, urine | oral, 15 mg verinurad, moderate renal impairment | relative to: impaired over normal renal function | renal clearance ratio (0-72 h) | 40%
Nc1ncnc(NCC2CCN(C(=O)C(O)CO)CC2)c1-c1ccc(Oc2ccccc2)cc1 (stereo not shown) |  | healthy male human, plasma | oral, 75 mg evobrutinib | relative to: metabolite over total radioactivity | AUC(0-24) ratio | 14.9%
CN(C)C(=S)N(C)N=Cc1ccccc1SSc1ccccc1C=NN(C)C(=S)N(C)C | optical absorption spectra | PBS | pH 7.40, 0.15% DMSO |  | hydrolytic stability period | ≥ 8 h
Cn1c(=O)oc2ccc(-c3ccc(CC(C#N)NC(=O)C4CNCCCO4)c(F)c3)cc21 (stereo not shown) | measured: blood triglycerides increased | human | 15 mg, treatment-related, single dose, fasted |  | subjects with adverse event | 0%
NS(=O)(=O)c1ccc(N2N=C(C(F)(F)F)C(O)C2c2ccc(F)cc2F)cc1 (stereo not shown) | substrate | male beagle dog liver microsomes | 20 µM, pH 7.4, mean of 0-90 and 0-60 min |  | metabolite formation rate | 23.7 pmol/min/mg
NCC(=O)N1CCC[C@H]1C(=O)N1C[C@H](O)C[C@H]1C(=O)O | potentiometric titration |  | 25 °C, MAH-1 complex, with: Fe(III) |  | log beta | 13.6
CCCC[C@@H]1NC(=O)[C@@H](NC(=O)[C@H](CCC(=O)O)NC(=O)CNC(=O)CN2CCN(CC(=O)O)CCN(CC(=O)O)CCN(CC(=O)O)CC2)CCCCNC(=O)C[C@@H](C(N)=O)NC(=O)[C@H](C(C)C)NC(=O)[C@@H]2CCCN2C(=O)[C@H](CCCNC(=N)N)NC(=O)CNC(=O)[C@H](Cc2c[nH]c3ccccc23)NC(=O)[C@H](CCCNC(=N)N)NC(=O)[C@@H](Cc2ccccc2)NC(=O)[C@H](Cc2c[nH]cn2)NC(=O)[C@H](CCC(=O)O)NC1=O [gallium-67 labelled] |  | normal C57 mice, bone | intravenous, 0.037 MBq/mouse, 2 h |  | tissue uptake | 0.12 ± 0.08 %ID/g
Oc1ccc(C(F)(F)F)cc1-c1nc2c(Br)cc(Br)cc2[nH]1 |  | defibrinated sheep blood | 400 µM | relative to: 1% Triton X-100 | hemolysis | < 50%
N=C(N)NCCC[C@@H]1NC(=O)[C@H](Cc2c[nH]c3ccccc23)NC(=O)[C@@H](CC2CCCCC2)NC(=O)[C@@H]2CCCN2C(=O)[C@@H](NC(=O)CCc2ccccc2)CCCNC1=O |  | C57BL/6J mouse, spinal cord | oral, 1 mg/kg, single dose, two-compartment model |  | alpha distribution rate constant | 0.9 h⁻¹
C=CC(=O)Nc1cc(Nc2nccc(-c3c[nH]c4ccccc34)n2)c(OC)cc1N(C)CCN(C)C | UHPLC-MS/MS | human, plasma | oral, 80 mg daily |  | steady-state trough concentration | 20 ng/mL
Cc1cc2c(cc1C1(c3ncc(C(=O)O)cn3)CC1)C(C)(C)CCC2(C)C |  | rat, Sprague-Dawley, male, serum | oral, 100 mg/kg, 24 h |  | triglycerides | 158 ± 46.5 ng/dL
COc1cc(-c2nc3ccc(C(=O)NCCCN4CCN(c5ccccn5)CC4)cc3n2C2CCC2)cc(OC)c1OC |  |  |  |  | dynamic solubility | 75.4 µM

Excerpt of the above:
Structure (SMILES) | assay | system | setting | how to read | quantity | value
CC(C)[C@H](NC(=O)CNC(=O)[C@H](CCC(N)=O)NC(=O)[C@H](C)N)C(=O)O |  | human | 30 mg/kg single dose, LOQ 0.5 ng/mL |  | time to concentration below LOQ | 120 min
Cn1cc(C(N)=O)c(NC2C3CC4CC2CC(OS(=O)(=O)O)(C4)C3)c2ccnc1-2 (stereo not shown) |  | Japanese adults, normal hepatic function, plasma | oral, 150 mg single dose |  | AUC(0-t) | 412 ng·h/mL
COc1cc(NC(C)=O)c2c(c1O)-c1c(OC)c(OC)cc3c1C(C2)N(C)CC3 (stereo not shown) |  | rat lung homogenate | 0.5 µg/mL, 24 h, room temperature, post-preparative storage |  | remaining compound | 92.4 ± 2.3%
C=C1C(=O)O[C@@H]2C[C@H](C)[C@@H]3C[C@H](OCc4cn(Cc5ccccc5)nn4)[C@H](O)[C@@]3(C)C[C@H]12 | propidium iodide flow cytometry | primary splenocytes, BALB/c mouse | 48 h, 10% fetal calf serum |  | CC50 | 69.1 ± 12 µg/mL (≈ 158 µM)
OC1(C(F)(F)F)CCN(c2nc(Nc3ccnc(C(F)(F)F)c3)nc(-c3cccc(C(F)(F)F)n3)n2)C1 (stereo not shown) |  | Sprague-Dawley rat | oral, at least 100 mg/kg, 28 days, once daily |  | food intake | decreased
CCCCN1C(=O)c2cccc3c(NCCCCCCCCCCN4CCOCC4)ccc(c23)C1=O |  | aqueous medium | pH 6 |  | fluorescence brightness | 912 M⁻¹ cm⁻¹
